Results from different studies.
Compare with care: the assays were run in different laboratories. Several values in a cell are separate wells, animals, samples, runs or records. ± gives the spread as reported. Converted amounts (≈) assume the structure as drawn.
UniProt Q14004, sequence (whole entry, looked up): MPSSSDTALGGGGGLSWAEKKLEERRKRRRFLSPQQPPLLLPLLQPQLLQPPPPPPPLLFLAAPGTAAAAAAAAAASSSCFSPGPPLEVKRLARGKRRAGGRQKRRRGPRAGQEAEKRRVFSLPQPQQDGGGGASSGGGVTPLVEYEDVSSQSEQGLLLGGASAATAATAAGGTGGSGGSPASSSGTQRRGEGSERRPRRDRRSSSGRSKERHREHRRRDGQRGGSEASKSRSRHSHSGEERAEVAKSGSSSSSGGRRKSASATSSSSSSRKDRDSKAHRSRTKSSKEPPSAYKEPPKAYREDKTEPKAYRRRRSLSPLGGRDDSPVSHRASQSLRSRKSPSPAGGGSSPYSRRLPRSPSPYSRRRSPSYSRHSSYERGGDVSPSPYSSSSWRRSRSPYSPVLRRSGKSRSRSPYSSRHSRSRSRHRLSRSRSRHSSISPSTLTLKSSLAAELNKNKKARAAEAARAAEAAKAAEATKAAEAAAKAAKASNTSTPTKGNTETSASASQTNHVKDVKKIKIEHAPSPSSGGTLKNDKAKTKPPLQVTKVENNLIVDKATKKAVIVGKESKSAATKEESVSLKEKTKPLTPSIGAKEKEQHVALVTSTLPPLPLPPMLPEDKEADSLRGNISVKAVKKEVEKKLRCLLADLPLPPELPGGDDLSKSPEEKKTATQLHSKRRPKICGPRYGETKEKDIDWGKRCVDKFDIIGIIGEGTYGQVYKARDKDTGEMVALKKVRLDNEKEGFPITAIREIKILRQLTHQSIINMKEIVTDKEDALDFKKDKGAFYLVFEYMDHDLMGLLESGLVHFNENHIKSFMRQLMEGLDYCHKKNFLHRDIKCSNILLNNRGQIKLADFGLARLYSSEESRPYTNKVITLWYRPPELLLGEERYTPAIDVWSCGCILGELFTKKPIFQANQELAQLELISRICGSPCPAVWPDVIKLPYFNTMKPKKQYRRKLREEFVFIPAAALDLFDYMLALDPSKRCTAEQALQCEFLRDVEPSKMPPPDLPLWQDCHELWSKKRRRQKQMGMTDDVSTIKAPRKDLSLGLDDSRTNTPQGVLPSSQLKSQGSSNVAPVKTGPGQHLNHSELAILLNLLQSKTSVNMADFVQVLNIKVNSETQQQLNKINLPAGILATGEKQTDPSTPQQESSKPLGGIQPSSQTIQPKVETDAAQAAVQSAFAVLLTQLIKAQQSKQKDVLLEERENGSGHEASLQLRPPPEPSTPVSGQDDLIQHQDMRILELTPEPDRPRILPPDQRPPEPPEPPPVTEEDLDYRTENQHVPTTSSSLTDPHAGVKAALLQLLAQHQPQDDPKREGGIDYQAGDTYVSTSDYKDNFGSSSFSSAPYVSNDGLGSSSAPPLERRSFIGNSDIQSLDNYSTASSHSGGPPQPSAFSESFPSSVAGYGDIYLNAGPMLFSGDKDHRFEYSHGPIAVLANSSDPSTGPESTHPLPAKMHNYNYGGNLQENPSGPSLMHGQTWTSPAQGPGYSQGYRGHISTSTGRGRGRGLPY
UniProt P49761, sequence (whole entry, looked up): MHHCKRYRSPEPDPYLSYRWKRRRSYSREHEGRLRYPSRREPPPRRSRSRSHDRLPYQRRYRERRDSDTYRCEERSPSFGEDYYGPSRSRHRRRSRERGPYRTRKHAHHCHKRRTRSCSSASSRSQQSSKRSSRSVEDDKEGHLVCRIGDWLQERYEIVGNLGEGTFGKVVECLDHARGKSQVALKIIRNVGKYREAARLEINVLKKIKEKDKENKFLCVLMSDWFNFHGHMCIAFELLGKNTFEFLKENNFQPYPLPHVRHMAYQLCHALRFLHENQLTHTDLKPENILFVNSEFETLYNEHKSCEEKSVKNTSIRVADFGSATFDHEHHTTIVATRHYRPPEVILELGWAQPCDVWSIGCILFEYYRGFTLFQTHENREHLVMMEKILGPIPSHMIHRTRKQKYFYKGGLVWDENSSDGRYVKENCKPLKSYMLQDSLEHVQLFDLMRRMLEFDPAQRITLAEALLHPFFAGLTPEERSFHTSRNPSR

SMILES | tested on | test | test system | conditions | scale | endpoint | value
COc1ccccc1-c1n[nH]c2nc(N[C@H]3CC[C@H](NS(=O)(=O)CC(C)C)CC3)ncc12 |  | bead binding, competition bead pull-down, refers to: LINJ.33.2520 | Leishmania donovani extract | 10 µM | relative to: vehicle | relative abundance | 0.94
CS(C)(=O)=Nc1ccc(-c2ccc(-c3nc4cc(O[C@@H]5CO[C@H]6[C@@H]5OC[C@H]6O)[nH]c4cc3F)cc2)cc1 | CLK3 (Homo sapiens, UniProt P49761) | enzyme activity, inhibitor |  | 10 µM |  | inhibition | 0%
O=C1NC2(CC2)COc2ncc(F)cc2[C@H]2COCCN2c2ccn3ncc1c3n2 |  |  | Sprague-Dawley rat, female, plasma | oral, 10 mg/kg/day, end of recovery, 4-week repeated-dose toxicity |  | prothrombin time | 8.2 ± 0.4 s
Cc1ccc(C2=CC(C)(C)Oc3ccc(-c4ccc(-c5ccc(C(=O)O)cc5)[nH]4)cc32)cc1 |  |  | CD1 mouse, male, testis | 10 mg/kg/day, 4 weeks after treatment, dosed for 4 weeks |  | tubules with sperm release failure | 2.3% and 5% and 5.2% and 1.8% and 2.1%
CC[C@H](C)[C@H](NC(=O)[C@H](CC(C)C)NC(=O)[C@H](CC(=O)O)NC(=O)[C@H](CCCNC(=N)N)NC(=O)[C@H](Cc1c[nH]c2ccccc12)NC(=O)[C@@H](N)CC(C)C)C(=O)N[C@@H](CS)C(=O)N[C@@H](CC(C)C)C(=O)N[C@@H](CS)C(=O)N[C@@H](CCCNC(=N)N)C(=O)N[C@@H](CC(N)=O)C(=O)N[C@@H](CCCNC(=N)N)C(=O)N[C@@H](CCCNC(=N)N)C(=O)N[C@@H](CS)C(=O)N[C@@H](CC(N)=O)C(=O)N[C@@H](CCCNC(=N)N)C(=O)NCC(=O)N[C@@H](CCC(N)=O)C(=O)N[C@@H](CC(C)C)C(=O)N[C@@H](Cc1ccccc1)C(=O)N1CCC[C@H]1C(=O)NCC(=O)N[C@@H](Cc1c[nH]c2ccccc12)C(=O)N[C@@H](CS)C(=O)N1CCC[C@H]1C(=O)NCC(=O)N[C@@H](Cc1c[nH]c2ccccc12)C(=O)N[C@@H](Cc1c[nH]c2ccccc12)C(=O)N[C@@H](CC(C)C)C(=O)N[C@@H](CCCNC(=N)N)C(=O)N[C@@H](CS)C(=O)N[C@@H](CS)C(=O)N[C@@H](CCCNC(=N)N)C(=O)N[C@@H](CCCNC(=N)N)C(N)=O |  |  | female C57BL/6J mice, DSS colitis | 5 mg/kg, 7 days |  | colon length | 7.12 ± 0.82 cm
CN(C)[C@H]1C[C@@]23CC[C@@]4(O2)C(=CC[C@]2(C)[C@@H](c5ccc6ccncc6c5)CC[C@H]24)C=C3[C@@H](O)[C@@H]1O | CDK13 (Homo sapiens, UniProt Q14004) | ATP probe labelling, inhibitor, KiNativ profiling |  | 0.1 µM |  | inhibition | 7%
Cc1cc(Br)c(NC2=NCCN2)c2ccccc12 |  | MAC formation, inhibitor, refers to: MAC deposition | human whole blood 50% | together with: zymosan |  | IC50 | 35 ± 12 µM
CC(C)(C)C(=O)OCOP(=O)(OCOC(=O)C(C)(C)C)C1CCCN(O)C1=O (stereo not drawn) | PC-3 |  |  |  |  | TGI | > 100 µM
COC(=O)C1CN1S(=O)(=O)c1ccc(C)cc1 (stereo not drawn) |  |  | mouse Lewis lung carcinoma | intraperitoneal, 100 mg/kg, day 16 |  | tumour growth inhibition | 56%
CCCC[C@@H]1NC(=O)[C@H](Cc2ccc(O)cc2)NC(=O)[C@@H]2CCCN2C(=O)[C@H](CC(=O)O)NC(=O)[C@H](C)NC(=O)[C@H](Cc2ccccc2)NC(=O)[C@@H]2CSCCC(=O)N3CN(CN(C3)C(=O)CCSC[C@@H](C(=O)N[C@@H](C)C(N)=O)NC1=O)C(=O)CCSC[C@H](NC(C)=O)C(=O)N[C@@H](CC(C)(C)C)C(=O)N1CCC[C@H]1C(=O)N[C@@H](CCC(=O)O)C(=O)N[C@H](CCCCNC(=O)CCc1cn(CCOCCOCCOCCN(CCOCCOCCOCCC(=O)N[C@H]3CSCCC(=O)N4CN5CN(C4)C(=O)CCSC[C@H](NC(=O)[C@@H](CC(=O)O)NC(=O)[C@H](Cc4cccc6ccccc46)NC(=O)[C@@H]4CCCN4C3=O)C(=O)N[C@@H](CCSC)C(=O)N[C@@H](CCCCNC(=N)N)C(=O)N[C@@H](CC(=O)O)C(=O)N[C@@H](Cc3c[nH]c4ccccc34)C(=O)N[C@@H](CO)C(=O)N[C@@H]([C@@H](C)O)C(=O)N3CCC[C@H]3C(=O)N3C[C@H](O)C[C@H]3C(=O)N[C@@H](Cc3c[nH]c4ccccc34)C(=O)N[C@H](C(N)=O)CSCCC5=O)CCOCCOCCOCCn3cc(CCC(=O)NCCCC[C@H]4NC(=O)[C@H](CCC(=O)O)NC(=O)[C@@H]5CCCN5C(=O)[C@H](CC(C)(C)C)NC(=O)[C@@H](NC(C)=O)CSCCC(=O)N5CN6CN(C5)C(=O)CCSC[C@H](NC(=O)[C@H](Cc5ccc(O)cc5)NC(=O)[C@@H]5CCCN5C4=O)C(=O)N[C@@H](Cc4ccccc4)C(=O)N[C@@H](C)C(=O)N[C@@H](CC(=O)O)C(=O)N4CCC[C@H]4C(=O)N[C@@H](Cc4ccc(O)cc4)C(=O)N[C@@H](CCCC)C(=O)N[C@H](C(=O)N[C@@H](C)C(N)=O)CSCCC6=O)nn3)nn1)C(=O)N1CCC[C@H]1C(=O)N[C@@H](Cc1ccc(O)cc1)C(=O)N2 |  | NanoString, refers to: Cd200r1-mRNA | mouse bearing MC38-Nectin-4 tumour, circulating white blood cells | 5 mg/kg, 24 h after dosing, unit not given | relative to: vehicle | mRNA level | 1.69
Cc1sc2c(c1C)C(c1ccc(-c3cccc(NC(=O)c4cnn5cccnc45)c3)cc1)=N[C@@H](CC(N)=O)c1nnc(C)n1-2 |  |  | mouse, MV4-11 subcutaneous xenograft | 10 mg/kg daily, 14 days |  | tumour growth inhibition | 119%
CC[C@H](C)[C@H](NC(=O)[C@H](CCCNC(=N)N)NC(=O)[C@H](CO)NC(=O)[C@H](Cc1ccc(O)cc1)NC(=O)[C@@H](NC(=O)[C@@H](NC(=O)[C@H](C)NC(=O)CNC(=O)[C@H](CCCCN)NC(=O)[C@H](CCCCN)NC(=O)CCNC(=O)CCCCCNC(=O)[C@H](CCCNC(=N)N)NC(=O)CCCCCNC(=O)[C@H](CCCNC(=N)N)NC(=O)[C@H](CCCNC(=N)N)NC(=O)CCCCCNC(=O)[C@H](CCCNC(=N)N)NC(=O)[C@H](CCCNC(=N)N)NC(=O)CCCCCNC(=O)[C@H](CCCNC(=N)N)NC(=O)[C@H](CCCNC(=N)N)NC(=O)CCCCCNC(=O)[C@@H](N)CCCNC(=N)N)C(C)C)[C@@H](C)O)C(=O)N[C@@H](CO)C(=O)NCC(=O)N[C@@H](CCC(N)=O)C(=O)N[C@@H](Cc1ccc(O)cc1)C(=O)N[C@@H](CCCCN)C(=O)O |  | broth microdilution | BAA-2469, NDM-1 producing, Mueller-Hinton broth |  |  | MIC | 12 µM (≈ 42.9 µg/mL)
Cc1cc(Oc2nc(N3CC[C@@H](c4ccncc4)C3)ncc2F)[nH]n1 | SF-268 | cell proliferation | brain cancer |  |  | IC50 | > 100 µM
Cc1cc(O)cc(C)c1C[C@H](N)C(=O)N[C@H](CCCNC(=N)N)C(=O)N[C@@H](Cc1ccccc1)C(=O)N[C@@H](CCCCN)C(=O)N[C@H]1CC[C@H](NC(=O)[C@H](Cc2ccccc2)NC(=O)[C@H](CC2CCCCC2)NC[C@@H]2Cc3ccccc3CN2C(=O)[C@@H](N)Cc2ccc(O)cc2)CC1 |  | agonist | guinea pig ileum |  |  | IC50 | 0.056 ± 0.0182 µM
Cc1cc(C(=O)Nc2nc3cccc(C)c3n2[C@H]2CCCCN(C(=O)/C=C/CN(C)C)C2)ccn1 | Trypanosoma brucei | propidium iodide flow cytometry | bloodstream form | concentration not given, 3 h |  | multinucleated cells | 6.75%
O=C(O)c1ccc(-c2nc(-c3ccccc3Cl)c3sccn23)cc1 |  |  | C57BL/6 mice | dose not given, day 3, basal hematopoiesis |  | platelet count change | 105% and 174% and 160%
CCCCCC1=C(NCC)C(=O)C(C/C=C(\C)CCC=C(C)C)=C(O)C1=O |  | RNA-seq GSEA, refers to: HALLMARK_MTORC1_SIGNALING | mouse, A53T α-synuclein lesioned, striatum | dose not given | relative to: untreated A53T lesioned mice, direction not given | normalised enrichment score | -1.4
CCN(CC)CCO.O=C(O)C(Cl)Cl | Chenopodium album | herbicidal activity |  | 15 mg/mL, 21 days, pre-emergence greenhouse |  | inhibition | 0%
CCc1nnc(-c2c(OC)cc(-c3cnc4cc(-c5cnn(C)c5)ccn34)cc2OC)o1 |  | histomorphometry | male C57BL/6J mouse, tibia | oral gavage, 10 mg/kg once daily, 3 wk |  | osteoblast surface/bone surface | 7.27 ± 0.9%
COc1ccccc1-c1n[nH]c2nc(NC3CCN(C(=O)Cc4ccc(F)cc4F)CC3)ncc12 |  | bead binding, competition bead pull-down, refers to: LINJ.36.4870 | Leishmania donovani axenic amastigote extract | 10 µM | relative to: vehicle | relative abundance | 0.91
COC(=O)[C@@H](NC(=O)c1nn(Cc2ccc(F)cc2)c2cc(OCCCCNC(=N)N)ccc12)C(C)(C)C |  | reversal of mechanical allodynia | mouse, spared nerve injury model | intraperitoneal |  | ED50 | 0.22 mg/kg

For quick reference, copied from above:
SMILES | tested on | test | test system | conditions | scale | endpoint | value
COc1ccccc1-c1n[nH]c2nc(N[C@H]3CC[C@H](NS(=O)(=O)CC(C)C)CC3)ncc12 |  | bead binding, competition bead pull-down, refers to: LINJ.33.2520 | Leishmania donovani extract | 10 µM | relative to: vehicle | relative abundance | 0.94
CS(C)(=O)=Nc1ccc(-c2ccc(-c3nc4cc(O[C@@H]5CO[C@H]6[C@@H]5OC[C@H]6O)[nH]c4cc3F)cc2)cc1 | CLK3 (Homo sapiens, UniProt P49761) | enzyme activity, inhibitor |  | 10 µM |  | inhibition | 0%
